Published values from different studies.
Protocols differ between the studies behind these lines. “And” joins repeats or separate records; there may be more than shown. ± marks the error that the study gave.

Compound	tested on	test	test system	setting	quantity	value
CNS(=O)(=O)Nc1nccc(Cc2c(C)c3ccc(Oc4ncccc4F)cc3oc2=O)c1F	Hs 695T	cell viability	–	7 days	IC50	> 1 µM
NCc1ccc2c(c1)CN(C1CCC(=O)NC1=O)C2=O (centres unmarked)	Hep3B	cell growth or viability, ATP luminescence	–	72 h	IC50	0.0733 µM and < 0.1 µM
C=CC(=O)N1CCCC(n2c(=O)c3ncccc3n(Cc3ccc(Oc4ccccc4)cc3)c2=O)C1 (centres unmarked)	SU-DHL-6	cell growth or viability, MTT	–	72 h	IC50	0.5 µM
O=C(N/N=C/c1cc[n+](CC2CC2)c2ccccc12)C(=O)N/N=C/c1cc[n+](CC2CC2)c2ccccc12	hp2 hairpin duplex DNA	FRET melting	–	1 µM, together with: ds26 10 µM	ΔTm	0.4 ± 0.3 °C
CC[C@H](C)[C@H](NC(=O)[C@H](CCCCN)NC(=O)[C@H](Cc1ccccc1)NC(=O)C[C@H](CC(C)C)NC(=O)CN)C(=O)N[C@H](CC(=O)N[C@@H](CCCCN)C(=O)N[C@@H](CCCCN)C(=O)N[C@H](CC(=O)N[C@@H](C)C(=O)N[C@@H](CCCCN)C(=O)N[C@@H](CO)C(=O)N[C@H](CC(N)=O)Cc1ccccc1)[C@@H](C)CC)[C@@H](C)CC	NIH 3T3	cytotoxicity	–	–	IC50	26.4 µg/mL
C=CC(=O)N1CC2C(=O)N(CCN(C)C)c3c(c4cc(Cl)c(-c5c(O)cccc5F)nc4n(-c4c(C)ccnc4C(C)C)c3=O)N2CC1C (centres unmarked)	NCI-H1373 (KRAS G12C)	cell proliferation, inhibitor	–	–	IC50	0.0306 ± 0.0138 µM
O=C(NCCOCCOCCNC(=O)c1cc2ccccc2c2ccccc12)c1cc(C(=O)N2CCNCCNCCNCC2)c(O)c(C(=O)N2CCNCCNCCNCC2)c1	WI-38	cell growth or viability, MTT	–	24 h	IC50	> 1000 µM
CC1(C)C[C@H]2C3=CCC4[C@@](C)(CCC(=O)O)C([C@@](C)(O)CO)CC[C@@]4(C)[C@]3(C)CC[C@@]2(CO)C[C@@H]1O (some centres unmarked)	RAW264.7	NO release, inhibitor, Griess	–	LPS-stimulated	IC50	> 100 µM
CC#CC#C/C=C1/O[C@@]2(CC[C@@H](O)CO2)[C@H](O)[C@H]1OC(=O)CC(C)C	RAW264.7	NO release, inhibitor, Griess	–	LPS-stimulated	IC50	> 50 µM
CCOc1cncc(-c2ccc(NC(=O)C3(c4ccnc(NS(=O)(=O)C5CC5)n4)CCOCC3)nc2)n1	OCI-Ly18	cell growth or viability, ATP luminescence	–	72 h	IC50	0.015 µM
Cc1cc(C)cc(COc2cc3c(cc2OCc2cc(C)cc(C)c2)[C@@H]2C[C@](O)(Cc4cn(Cc5ccc(F)cc5)nn4)C[C@H](C)N2CC3)c1 (relative stereo)	ASPC1	cell growth or viability, MTT	–	–	IC50	0.437 µM
NC(=O)c1ccc(-c2ccccc2Cl)c2c3c([nH]c12)CCC(N)C3 (centres unmarked)	U-937	cell growth or viability	–	96 h	IC50	0.0158 µM
CC(C)c1ccc(N(C)c2ccc3c(c2)OCC[C@H]3CNc2cnccc2C(=O)O)cc1	HPAC	cell growth or viability, ATP luminescence	–	7 days	IC50	0.00393 µM
CC[C@H](C)[C@H](NC(=O)[C@H](CCCCN)NC(=O)[C@H](Cc1ccccc1)NC(=O)C[C@H](CC(C)C)NC(=O)CN)C(=O)N[C@H](CC(=O)N[C@@H](CCCCN)C(=O)N[C@@H](CCCCN)C(=O)N[C@H](CC(=O)N[C@@H](CC(C)C)C(=O)N[C@@H](CCCCN)C(=O)N[C@@H](CC(C)C)C(=O)N[C@H](CC(N)=O)Cc1ccccc1)[C@@H](C)CC)[C@@H](C)CC	NIH 3T3	cytotoxicity	–	–	IC50	4.5 µg/mL
Nc1ncc(-c2cc(-c3cnn(CC(F)(F)F)c3)ncc2F)nc1C(=O)NC1CNCC(F)C1 (centres unmarked)	DLD-1 BRCA2 knockout	cell viability	–	–	IC50	0.007 µM
C=CCOCO[C@H](C(=O)NC[C@@H]1C[C@@H](OC)C(C)(C)[C@@H](C[C@@H](COC)OC)O1)[C@@]1(OC)CC(=C)[C@@H](C)[C@@H](C)O1	RAW264.7	cell viability, sulforhodamine B	–	48 h, 37 °C, together with: 100 µM H2O2	IC50	0.603 ± 0.115 µM
CC[C@H](C)[C@H](NC(=O)C[C@H](CCCCN)NC(=O)[C@H](Cc1ccccc1)NC(=O)C[C@H](CC(C)C)NC(=O)CN)C(=O)N[C@H](C(=O)N[C@@H](CCCCN)CC(=O)N[C@@H](CCCCN)C(=O)N[C@H](CC(=O)N[C@@H](CC(C)C)C(=O)N[C@@H](CCCCN)CC(=O)N[C@@H](CC(C)C)C(=O)N[C@@H](Cc1ccccc1)C(N)=O)[C@@H](C)CC)[C@@H](C)CC	NIH 3T3	cytotoxicity	–	–	IC50	14.7 µg/mL
CC(=O)OC[C@H]1O[C@@H](Oc2ccc(C#[C][Pt+])cc2)[C@H](OC(C)=O)[C@@H](OC(C)=O)[C@@H]1OC(C)=O.O=S(=O)([O-])C(F)(F)F.c1ccc(-c2cccc(-c3ccccn3)n2)nc1	PLC	cell growth or viability	–	24 h	IC50	> 100 µM
NCCOc1cc(NC(=O)c2cc(OCc3cn([C@H]4O[C@@H](CO)[C@H](O)[C@@H](O)[C@@H]4O)nn3)cc(C(=O)Nc3cc(OCCN)c4ccccc4n3)n2)nc2ccccc12	WI-38	cell growth or viability, ATP luminescence	–	72 h	IC50	> 40 µM
C[n+]1ccc(/C=N/NC(=O)c2ccc3ccc4ccc(C(=O)N/N=C/c5cc[n+](C)cc5)nc4c3n2)cc1	hp2 hairpin duplex DNA	FRET melting	–	1 µM	ΔTm	1.6 ± 1 °C
Cc1ccc([N+](=O)[O-])cc1S(=O)(=O)N(C)/N=C/c1cnc2ccc(Br)cn12	RXF 393	MTS	–	NCI60 panel	IC50	0.08 µM
CC[C@H](C)[C@H](NC(=O)[C@H](CCCCN)NC(=O)[C@H](Cc1ccccc1)NC(=O)[C@H]1CCC[C@@H]1NC(=O)[C@@H](N)CCCCN)C(=O)N[C@H](CC(=O)N[C@@H](CCCCN)C(=O)N[C@@H](CCCCN)C(=O)N[C@H]1CCC[C@@H]1C(=O)N[C@@H](C)C(=O)N[C@@H](CCCCN)C(=O)N[C@@H](CO)C(=O)N[C@H](CC(N)=O)Cc1ccccc1)[C@@H](C)CC	NIH 3T3	cytotoxicity	–	–	IC50	63.2 µg/mL
COc1cc(-c2cc(C(C)=O)n3ccccc23)cc(OC)c1Cn1ccnc1	EOL1	cell growth or viability, ATP luminescence	–	–	IC50	0.4 µM
CN1CCC(N[C@H]2CCc3[nH]c4c(C(N)=O)ccc(-c5ccccc5Cl)c4c3C2)CC1	A-375	cell growth or viability	–	–	IC50	2.25 µM
CCNC(=S)NN=Cc1c2ccccc2cc2ccccc12.Cc1ccc(C(C)C)cc1.[Cl-].[Cl-].[Ru+2]	Caco-2	cytotoxicity, MTS	–	72 h	IC50	205 ± 5 µM
O=C(NCc1cc(F)cc(F)c1)[C@@]1(O)CCN(c2ccc3[nH]ccc3c2)C1=O	PC-9	cell growth or viability	–	–	IC50	17 µM
Cn1ncc(-c2ccc3c(=O)[nH]nc(CN)c3c2)c1-c1c(F)c(Cl)cc(OC2CC2)c1C#N	SNU-449	cell viability, inhibitor, CellTiter-Glo	–	120 h, baseline-subtracted	IC50	6.68 µM
C=C(C)C(C)(C)CCC(C)C1CCC2(C)C3CCC4C(C)C(O)CCC45CC35CCC12C (centres unmarked)	MDA-MB-231 breast cancer	cell viability, MTT	DMEM with 10% FBS	48 h	IC50	> 200 µM
CCn1cc(-c2cccc(C(F)(F)F)c2)c2sc(C(=N)NC3CCS(=O)(=O)CC3)cc2c1=O	MOLM-13	cell growth or viability, ATP luminescence	–	–	IC50	5.97 µM

Repeated from above:
Compound	tested on	test	test system	setting	quantity	value
C=CC(=O)N1CC2C(=O)N(CCN(C)C)c3c(c4cc(Cl)c(-c5c(O)cccc5F)nc4n(-c4c(C)ccnc4C(C)C)c3=O)N2CC1C (centres unmarked)	NCI-H1373 (KRAS G12C)	cell proliferation, inhibitor	–	–	IC50	0.0306 ± 0.0138 µM
NCc1ccc2c(c1)CN(C1CCC(=O)NC1=O)C2=O (centres unmarked)	Hep3B	cell growth or viability, ATP luminescence	–	72 h	IC50	0.0733 µM and < 0.1 µM
